Experimental data gathered from unrelated publications.
Protocols differ between the studies behind these lines.
Target: Adenosine receptor A1 (ADORA1, Homo sapiens, UniProt P30542)
UniProt P30542, sequence (whole entry, looked up): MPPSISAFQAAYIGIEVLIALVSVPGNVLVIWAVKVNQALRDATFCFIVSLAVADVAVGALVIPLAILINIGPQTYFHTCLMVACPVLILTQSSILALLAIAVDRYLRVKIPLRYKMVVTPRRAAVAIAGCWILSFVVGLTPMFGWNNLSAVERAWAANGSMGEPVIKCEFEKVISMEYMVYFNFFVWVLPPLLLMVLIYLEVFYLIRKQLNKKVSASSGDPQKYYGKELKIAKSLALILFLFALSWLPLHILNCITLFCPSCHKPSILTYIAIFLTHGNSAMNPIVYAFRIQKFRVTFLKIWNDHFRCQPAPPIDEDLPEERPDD

| SMILES | assay | system | setting | endpoint | value |
| --- | --- | --- | --- | --- | --- |
| CCNC(=O)[C@H]1O[C@@H](n2cnc3c(NCCCCNC(=O)CCN(C)c4ccc5nc6ccc(N(CC)CCCS(=O)(=O)[O-])cc6[o+]c5c4)ncnc32)[C@H](O)[C@@H]1O | CRE reporter gene, agonist | CHO-A1 | Gi-mediated inhibition, with: forskolin | IC50 | 3550 nM |
| CC(=O)Nc1ccc(-c2c(C#N)c(N)nc(SCc3ccccc3)c2C#N)cc1 | ligand displacement, radioligand | – | cell membranes | Ki | 109 nM |
| Nc1ncnc2c1ncn2[C@@H]1O[C@H](C(=O)NCC(F)F)[C@@H](O)[C@H]1O | ligand displacement, radioligand | – | cell membranes | Ki | 4.7 nM |
| CN(C(=O)c1ccn2ncc(-c3ccc(C(N)=O)cc3)c2c1)c1ccc(C#N)cn1 | ligand displacement | – | – | IC50 | > 30000 nM |
| NC(=O)CNC(=O)[C@H]1O[C@@H](n2cnc3c(N)ncnc32)[C@H](O)[C@@H]1O | ligand displacement, radioligand | – | cell membranes | Ki | 330 nM |
| CCNC(=O)[C@H]1O[C@@H](n2cnc3c(NCCCCNC(=O)CCCCCNC(=O)CCC4=[N+]5C(=Cc6c(C)cc(C)n6[B-]5(F)F)C=C4)ncnc32)[C@H](O)[C@@H]1O | reporter gene, agonist | – | – | EC50 | > 10000 nM |
| COc1ccc(-c2nc(CSc3nc(N)c(C#N)c(-c4ccccc4)c3C#N)cs2)cc1 | ligand displacement, radioligand | – | cell membranes | Ki | 6.1 nM |
| Nc1ncnc2c1ncn2[C@@H]1O[C@H](C(=O)NCCCF)[C@@H](O)[C@H]1O | ligand displacement, radioligand | – | cell membranes | Ki | 8.9 nM |
| N#Cc1c(N)nc(SCc2ncc[nH]2)c(C#N)c1-c1cccc(F)c1 | ligand displacement, radioligand | – | cell membranes | Ki | 13 nM |
| CCCn1c(=O)c2[nH]c(-c3ccc(OCC(=O)NCCNC(=O)CCCCCNC(=O)COc4ccc(/C=C/C5=[N+]6C(=Cc7ccc(-c8cccs8)n7[B-]6(F)F)C=C5)cc4)cc3)nc2n(CCC)c1=O | CRE reporter gene, antagonist | CHO-A1 | Gs response, PTX-pretreated overnight, with: NECA and forskolin | Kd | 72.4 nM |

For quick reference, copied from above:
| SMILES | assay | system | setting | endpoint | value |
| --- | --- | --- | --- | --- | --- |
| Nc1ncnc2c1ncn2[C@@H]1O[C@H](C(=O)NCCCF)[C@@H](O)[C@H]1O | ligand displacement, radioligand | – | cell membranes | Ki | 8.9 nM |
